Results collected from several papers.
Numbers after ± are the reported error.

SMILES = CC(C)[C@H](NC(=O)[C@@H]1CCCN1C(=O)[C@H](CCCNC(=N)N)NC(=O)[C@H](CS)NC(=O)[C@H](Cc1c[nH]c2ccccc12)NC(=O)[C@H](CCCNC(=N)N)NC(=O)[C@@H](Cc1ccccc1)NC(=O)[C@H](Cc1c[nH]cn1)NC(=O)[C@H](CCC(=O)O)NC(=O)[C@H](CS)NC(=O)[C@H](CS)NC(=O)[C@@H]1CC(=O)N[C@@H](CCCNC(=N)N)C(=O)NCC(=O)N[C@@H](CC(=O)O)C(=O)N[C@H](Cc2ccc(O)cc2)C(=O)N1)C(N)=O [technetium-99m labelled]; test system = C57 mouse, female, B16/F1 melanoma, stomach; setting = intravenous, 0.037 MBq, 0.5 h; tissue uptake = 4.49 ± 1.59 %ID/g
SMILES = CCCC[C@H](NC(=O)CNC(=O)CNC(=O)CN1CCN(CC(=O)O)CCN(CC(=O)O)CCN(CC(=O)O)CC1)C(=O)N[C@H]1CC(=O)NCCCC[C@@H](C(N)=O)NC(=O)[C@H](Cc2c[nH]c3ccccc23)NC(=O)[C@H](CCCNC(=N)N)NC(=O)[C@@H](Cc2ccccc2)NC(=O)[C@H](Cc2c[nH]cn2)NC1=O [copper-64 labelled]; test system = female C57 mouse, B16/F1 melanoma, kidneys; setting = intravenous, 0.037 MBq, 0.5 h; tissue uptake = 14.4 ± 1.85 %ID/g
SMILES = O=C([O-])CN1CCN(CC(=O)[O-])CCN(CC(=O)NCCc2ccc3c(c2)C2C=CCC2C(c2cc4c(cc2Br)OCO4)N3)CCN(CC(=O)[O-])CC1.[111In+3] (centres unmarked); test system = mouse, Hec50 endometrial tumour, small intestine; setting = 0.5 h post injection; tissue uptake = 11.1 ± 0.84 %ID/g
SMILES = CCCC[C@H](NC(=O)CNC(=O)CNC(=O)CN1CCN(CC(=O)O)CCN(CC(=O)O)CCN(CC(=O)O)CC1)C(=O)N[C@H]1CC(=O)NCCCC[C@@H](C(N)=O)NC(=O)[C@H](Cc2c[nH]c3ccccc23)NC(=O)[C@H](CCCNC(=N)N)NC(=O)[C@@H](Cc2ccccc2)NC(=O)[C@H](Cc2c[nH]cn2)NC1=O [lead-203 labelled]; test system = C57 mouse, liver; setting = intravenous, 0.056 MBq, 4 h; tissue uptake = 1.08 ± 0.34 %ID/g
SMILES = CCCC[C@H](NC(=O)CNC(=O)CNC(=O)CN1CCN(CC(=O)O)CCN(CC(=O)O)CC1)C(=O)N[C@H]1CC(=O)NCCCC[C@@H](C(N)=O)NC(=O)[C@H](Cc2c[nH]c3ccccc23)NC(=O)[C@H](CCCNC(=N)N)NC(=O)[C@@H](Cc2ccccc2)NC(=O)[C@H](Cc2c[nH]cn2)NC1=O [copper-64 labelled]; test system = C57 mouse B16/F1 melanoma, heart; setting = 0.5 h; tissue uptake = 0.89 ± 0.29 %ID/g
SMILES = CC(C)[C@H](NC(=O)[C@@H]1CCCN1C(=O)[C@H](CCCNC(=N)N)NC(=O)[C@H](CS)NC(=O)[C@H](Cc1c[nH]c2ccccc12)NC(=O)[C@H](CCCNC(=N)N)NC(=O)[C@@H](Cc1ccccc1)NC(=O)[C@H](Cc1c[nH]cn1)NC(=O)[C@H](CCC(=O)O)NC(=O)[C@H](CS)NC(=O)[C@H](CS)NC(=O)CNC(=O)[C@@H]1CC(=O)N[C@@H](CCCNC(=N)N)C(=O)NCC(=O)N[C@@H](CC(=O)O)C(=O)N[C@H](Cc2ccc(O)cc2)C(=O)N1)C(N)=O [technetium-99m labelled]; test system = C57 mouse, female, B16/F1 melanoma, bone; setting = intravenous, 0.037 MBq, 4 h; tissue uptake = 0.5 ± 0.3 %ID/g
SMILES = CN(C)c1ccc(-c2nc3ccc(OCCCCCN4CCN5CCN(CC4)CC(=O)[O][Al]([18F])[O]C(=O)C5)cc3s2)cc1; test system = ICR mouse, liver; setting = intravenous, 60 min; tissue uptake = 57.2 ± 3.7 %ID/g
SMILES = CN1C(=O)[C@@H](Cc2ccc(O)c(I)c2)NC(=O)CNC(=O)[C@H](Cc2ccc3ccccc3c2)NC(=O)[C@H](CCCNC(=N)N)NC(=O)[C@H]1CCCNC(=O)c1ccc(CNC(=O)CN2CCN(CC(=O)O)CCN(CC(=O)O)CCN(CC(=O)O)CC2)cc1 [lutetium-177 labelled]; test system = female CB-17 SCID mouse, Daudi xenograft, uterus; setting = intravenous, 6 h, CXCR4 blocking, with: AMD3100 2 mg/kg coinjected; tissue uptake = 0.39 ± 0.07 %ID/g
